Published values of several laboratories.
± marks the error that the study gave. Values after ≈ are worked out from the molar mass of the structure shown.
Organism: Escherichia coli

For `Fc1ccc2nc3c4cccnc4c4ncccc4c3nc2c1.[Cl-].[Cl-].[Ru+2].c1ccncc1.c1ccncc1.c1ccncc1.c1ccncc1`, the MIC90 was 16 µM (LED irradiation 470 nm).
For `CC(=NNC(=N)N)c1nnn(-c2ccc(C#CC3(O)CCCCC3)cc2)c1C`, the biofilm inhibition was 65.43 ± 0.45% (crystal violet; ATCC 25922; MIC).
For `C[C@@H](O)[C@H](NC(=O)c1ccc(C#Cc2ccc(CN3CCOCC3)cc2)cc1)C(=O)NO`, the MIC90 was 0.25 µg/mL (microbial growth, broth dilution; clinical isolate).
`c1ccc(CN2CCOCCOCCN(CCCCCCCCCCCCN3CCOCCOCCN(CCCCCCCCCCCCN4CCOCCOCCN(Cc5ccccc5)CCOCCOCC4)CCOCCOCC3)CCOCCOCC2)cc1` — result for “concentration restoring tetracycline activity”: 625 nM (checkerboard; tetracycline-resistant; with: tetracycline).
For `Cc1cc([N+](=O)[O-])ccc1NC(=O)CSc1nc2ccccc2c(=O)n1-c1ccc(S(N)(=O)=O)cc1`, the MBC was 2.5 µg/mL (≈ 4.76 µM) (microbial killing; ATCC25 ATCC25922; 24 h).
For `[Cl-].[Cl][Ru-4]123([n+]4ccccc4-c4cc(-c5ccccc5)cc([n+]41)-c1cccc[n+]12)[n+]1ccc(-c2ccccc2)c2ccc4c(-c5ccccc5)cc[n+]3c4c21`, “average filament length” read 94 µm (bacterial cytological profiling; BL21(DE3); MIC, 24 h).
`Fc1ccc(CSc2nnc(C34CC5CC(CC(C5)C3)C4)n2-c2ccccc2)cc1` — result for “inhibition zone diameter”: under 10 mm (IFO 3301; 200 µg/disc, 24 h, 37 °C).
`c1ccc(CN2CCOCCOCCN(CCCCCCCCN3CCOCCOCCN(CCCCCCCCN4CCOCCOCCN(Cc5ccccc5)CCOCCOCC4)CCOCCOCC3)CCOCCOCC2)cc1` gave an FIC index of under 0.5 (tetracycline-resistant; 1/4 MIC, with: tetracycline).
`CCCCCC1CC2CCCC3CC(C)N=C(N1)N32` (stereo not drawn) has an IC50 of 23.3 µM (bacterial growth; ATCC 35218).
For `CC[C@H](C)[C@H](NC(=O)[C@H](CS)NC(=O)[C@@H](NC(=O)[C@@H]1CCCN1C(=O)[C@H](Cc1ccccc1)NC(=O)[C@H](CC(N)=O)NC(=O)[C@@H](NC(=O)[C@H](CC(=O)O)NC(=O)CCNC(=O)CNC(=O)O[C@H]1CC[C@@]2(C)C(=CC[C@H]3[C@@H]4CC[C@H]([C@H](C)CCCC(C)C)[C@@]4(C)CC[C@@H]32)C1)[C@@H](C)O)[C@@H](C)CC)C(=O)N[C@@H](Cc1ccccc1)C(N)=O`, “amphiregulin protein level” read “increased” (mouse, pulmonary macrophages; intratracheal, 25 nmol per mouse, 12 h).
Under “time to complete killing”, `CC(C)C[C@@H]1NC(=O)[C@H](CCCCN)NC(=O)CNC(=O)[C@H]2CCCN2C(=O)[C@H](CCCCN)NC(=O)[C@H](CC(C)C)NC(=O)[C@H](CCCCN)NC(=O)[C@H](CC(C)C)NC(=O)[C@H](CCCCN)NC(=O)C(N)CCC=CCCC(C(N)=O)NC(=O)[C@H](CCCCN)NC(=O)[C@H](CC(C)C)NC(=O)[C@H](CCCCN)NC1=O` (stereo partly drawn) is recorded as at most 6 h (ATCC 25922; 1× MIC).
Under “inhibition zone diameter”, `Cn1c(SCCN2CCCCC2)nnc1C12CC3CC(CC(C3)C1)C2` is recorded as under 10 mm (IFO 3301; 200 µg/disc, 24 h, 37 °C).
With `[Cl-].[Cl-].[Ru+2].c1ccc2nc3c4cccnc4c4ncccc4c3nc2c1.c1ccncc1.c1ccncc1.c1ccncc1.c1ccncc1` the MIC90 was 16 µM (LED irradiation 470 nm).
`CCOC(=O)C1=C(C)NC2=C(C(=O)CC(C)(C)C2)C1c1ccc(OCC(=O)NN=Cc2cccc([N+](=O)[O-])c2)cc1OCC(=O)NN=Cc1cccc([N+](=O)[O-])c1` (stereo not drawn) — result for “inhibition zone diameter”: 2.3 ± 0.3 mm (ATCC 25922; concentration not given, 24 h, 37 °C).
`C[C@]1(COC(=O)Cc2ccc(O)c(O)c2)[C@H](C(=O)O)N2C(=O)/C(=C/c3ccccn3)[C@H]2S1(=O)=O` — result for “MIC of ceftazidime”: at most 0.06 µg/mL (broth microdilution; TG1 expressing DHA-1; 16 µg/mL).
For `CC(CCCOC(=O)CCC[N+](C)(C)C)C1CCC2C3CCC4CC(OC(=O)CCC[N+](C)(C)C)CCC4(C)C3CC(OC(=O)CCC[N+](C)(C)C)C12C` (stereo not drawn), the permeabilizing concentration was at least 15.6 µg/mL (outer membrane permeabilization, nitrocefin hydrolysis; 90 min).
`COc1cc(OC)c2c(c1)C(=O)c1cc3oc(=O)cc(-c4ccccc4)c3c(O)c1C2=O` — result for “inhibition zone diameter”: 12 mm (MTCC 739; 100 µg/disc).
For `CC[C@@H](C)[C@@H](NC(=O)[C@@H](Cc1c[nH]c2ccccc12)NC(=O)[C@H](N)CCCNC(=N)N)C(=O)N[C@H](CCCNC(=N)N)C(=O)N[C@H](Cc1c[nH]c2ccccc12)C(=O)N[C@@H](C(=O)N[C@H](Cc1c[nH]c2ccccc12)C(=O)N[C@H](CCCNC(=N)N)C(=O)N[C@H](CCCCN)C(=O)N[C@H](CCCCN)C(=O)N[C@H](CC(C)C)C(=O)N[C@H](CCCNC(=N)N)C(N)=O)C(C)C`, the FICI was 1 (checkerboard; ATCC 25922; unit not given, with: 10-N-nonyl acridine orange; lower = stronger synergy).
For `C[C@]1(COC(=O)c2ccccc2O)[C@H](C(=O)O)N2C(=O)/C(=C/c3ccccn3)[C@H]2S1(=O)=O`, “MIC of ceftazidime” read 2 µg/mL (broth microdilution; TG1 expressing FOX-4; 16 µg/mL).
For `COc1ccc(/N=N/C(=S)N2CCOCC2)cc1`, the IC50 was over 50 µM (microbial growth; ATCC 8739, ATCC8739; 24 h).
For `O=[N+]([O-])c1ccc(CSc2nnc(C34CC5CC(CC(C5)C3)C4)n2-c2ccccc2)cc1`, “inhibition zone diameter” read under 10 mm (IFO 3301; 200 µg/disc, 24 h, 37 °C).
`Cc1ccc(S(=O)(=O)N(CCc2nnc(S)o2)c2ccccc2)cc1` gave a relative inhibition of 20.7% (cup plate method; 100 µg/mL; baseline: cotrimoxazole).
For `CC[C@H](C)[C@H](NC(=O)[C@H](CCCCN)NC(=O)[C@H](CC(N)=O)NC(=O)[C@H](Cc1c[nH]c2ccccc12)NC(=O)[C@H](Cc1ccccc1)NC(=O)[C@H](CCCCN)NC(=O)[C@H](CCCNC(=N)N)NC(=O)[C@H](CC(C)C)NC(=O)[C@H](Cc1c[nH]c2ccccc12)NC(=O)[C@H](CCCCN)NC(=O)[C@H](CCCNC(=N)N)NC(=O)[C@H](CC(C)C)NC(=O)CNC(C)=O)C(=O)N[C@@H](CCCCN)C(=O)N[C@@H](CCCNC(=N)N)C(N)=O`, “MIC fold increase” read 16 fold (ATCC 25922; 12 h, with: plasma pretreatment; baseline: MIC without plasma pretreatment).
`CC[C@H](C)[C@H](NC(=O)[C@H](CCCNC(=N)N)NC(=O)[C@@H](N)CCCNC(=N)N)C(=O)N[C@@H](CCCNC(=N)N)C(=O)N1CCC[C@H]1C(=O)N[C@@H](CCCNC(=N)N)C(=O)N1CCC[C@H]1C(=O)N1CCC[C@H]1C(=O)N[C@@H](CCCNC(=N)N)C(=O)N[C@@H](CC(C)C)C(=O)N1CCC[C@H]1C(=O)N[C@@H](CCCNC(=N)N)C(=O)N1CCC[C@H]1C(=O)N[C@@H](CCCNC(=N)N)C(=O)N1CCC[C@H]1C(=O)N[C@@H](CCCNC(=N)N)C(=O)N1CCC[C@H]1C(=O)N[C@@H](CC(C)C)C(=O)N1CCC[C@H]1C(=O)N[C@@H](Cc1ccccc1)C(=O)N1CCC[C@H]1C(=O)N[C@@H](CCCNC(=N)N)C(=O)N1CCC[C@H]1C(=O)NCC(=O)N1CCC[C@H]1C(=O)N[C@@H](CCCNC(=N)N)C(=O)N1CCC[C@H]1C(=O)N[C@H](C(=O)N1CCC[C@H]1C(=O)N[C@@H](CCCNC(=N)N)C(=O)N1CCC[C@H]1C(=O)N[C@@H](CC(C)C)C(=O)N1CCC[C@H]1C(=O)N[C@@H](Cc1ccccc1)C(=O)N1CCC[C@H]1C(=O)O)[C@@H](C)CC` has a PI-positive cells of under 3% (membrane permeabilization, propidium iodide flow cytometry; BW25113, Mueller-Hinton broth; 1 µM, 15 min, 37 °C).
For `N=C(N)NCCC[C@@H]1NC(=O)[C@H](CCCNC(=N)N)NC(=O)[C@H](CCCNC(=N)N)NC(=O)[C@H](Cc2ccc3ccccc3c2)NC(=O)[C@H](Cc2c[nH]c3ccccc23)NC(=O)[C@H](Cc2ccc3ccccc3c2)NC(=O)[C@H](CCCNC(=N)N)NC1=O`, “biofilm mass reduction” read 60 to 65% (XTT; ATCC BAA-2452; 2 × MIC).
`CC(C)=CCc1cc2c(cc1O)OC[C@H]1c3ccc(O)c(CC=C(C)C)c3O[C@@H]21`: antibacterial activity “inactive” (TISTR 780; concentration not given).
The MBC of `CCn1cc(/C=C/c2sc3ccccc3[n+]2CC)c2ccccc21` is reported as 25 ± 0.002 µg/mL (780; 24 h).
The biofilm inhibition of `CCCCCCCCCCCCCCCCCC(=O)N[C@@H](CCCCN)C(=O)N[C@@H](CCCCN)C(=O)N[C@@H](CCCCN)C(=O)N[C@@H](CCCCN)C(=O)N[C@@H](CCCCN)C(N)=O` is reported as 39.5% (crystal violet; K12; 32 µg/mL).
For `CCCCCCCCCCCC1N=C(N)N=C(N)N1c1ccc(Cl)cc1.Cl` (racemic), the MIC90 was 8 µM (broth microdilution; ATCC 25922; with: 7.4 mg/mL thymidine).
`CNC1=C([N+](=O)[O-])C2(C(=O)Nc3ccccc32)C2=C(CCCC2=O)O1` (stereo not drawn) has an inhibition of 50.4% (microbial growth; ATCC25922; 250 µg/mL, 24 h).
Under “inhibition zone diameter”, `CC(=O)[O-].O.[Cu+2].[O-]c1ccc(Br)cc1C=NCCN1CCOCC1` is recorded as 18 mm (20 µL of 100 µM per disc).
`COc1ccc(/N=N/C(=S)N2CCCC2)cc1` has an IC50 of over 50 µM (microbial growth; ATCC 8739, ATCC8739; 24 h).
`COc1c2c(cc3oc(=O)cc(C)c13)C(=O)c1cc(C)cc(O)c1C2=O` — result for “zone of inhibition”: under 8 mm (MTCC 739; 100 µg/disc).
`c1ccc(CN2CCOCCOCCN(CCCCCCCCCCCCCCN3CCOCCOCCN(CCCCCCCCCCCCCCN4CCOCCOCCN(Cc5ccccc5)CCOCCOCC4)CCOCCOCC3)CCOCCOCC2)cc1` — result for “concentration restoring tetracycline activity”: 500 nM (checkerboard; tetracycline-resistant; with: tetracycline).
The inoculation time of `Cc1ccc2ccc3ccc(C)nc3c2n1.Cc1ccc2ccc3ccc(C)nc3c2n1.O.[Cl-].[Cl-].[Cl-].[Yb+3]` is reported as 24 h (bacterial growth).
With `O=C(O)[C@@H]1Cc2c([nH]c3ccccc23)[C@@H](c2ccc(Br)cc2Cl)N1` the growth inhibition was 0% (BL21(DE3); 250 µM, 18 h).

Some of these lines once more:
`COc1cc(OC)c2c(c1)C(=O)c1cc3oc(=O)cc(-c4ccccc4)c3c(O)c1C2=O` — result for “inhibition zone diameter”: 12 mm (MTCC 739; 100 µg/disc).
For `[Cl-].[Cl][Ru-4]123([n+]4ccccc4-c4cc(-c5ccccc5)cc([n+]41)-c1cccc[n+]12)[n+]1ccc(-c2ccccc2)c2ccc4c(-c5ccccc5)cc[n+]3c4c21`, “average filament length” read 94 µm (bacterial cytological profiling; BL21(DE3); MIC, 24 h).
For `CCCCCCCCCCCC1N=C(N)N=C(N)N1c1ccc(Cl)cc1.Cl` (racemic), the MIC90 was 8 µM (broth microdilution; ATCC 25922; with: 7.4 mg/mL thymidine).
For `CC[C@H](C)[C@H](NC(=O)[C@H](CCCCN)NC(=O)[C@H](CC(N)=O)NC(=O)[C@H](Cc1c[nH]c2ccccc12)NC(=O)[C@H](Cc1ccccc1)NC(=O)[C@H](CCCCN)NC(=O)[C@H](CCCNC(=N)N)NC(=O)[C@H](CC(C)C)NC(=O)[C@H](Cc1c[nH]c2ccccc12)NC(=O)[C@H](CCCCN)NC(=O)[C@H](CCCNC(=N)N)NC(=O)[C@H](CC(C)C)NC(=O)CNC(C)=O)C(=O)N[C@@H](CCCCN)C(=O)N[C@@H](CCCNC(=N)N)C(N)=O`, “MIC fold increase” read 16 fold (ATCC 25922; 12 h, with: plasma pretreatment; baseline: MIC without plasma pretreatment).
For `O=[N+]([O-])c1ccc(CSc2nnc(C34CC5CC(CC(C5)C3)C4)n2-c2ccccc2)cc1`, “inhibition zone diameter” read under 10 mm (IFO 3301; 200 µg/disc, 24 h, 37 °C).
`Cc1ccc(S(=O)(=O)N(CCc2nnc(S)o2)c2ccccc2)cc1` gave a relative inhibition of 20.7% (cup plate method; 100 µg/mL; baseline: cotrimoxazole).
